Measurements of several laboratories.
Numbered parts are unrelated; each lists some results of a single study.

Block 1
Target: Histone acetyltransferase KAT6A, winged helix 1, GST fusion (KAT6A, Homo sapiens, UniProt Q92794, residues 1-85)
Method: protein binding microarray
Form: double-stranded DNA, one strand shown
Medium: in vitro
Tested at: not given
Setting: 8-mer, flanks averaged, mean of 2 arrays, mostly near background
Relative to: not given
Direction: higher = stronger binding
Residues (chain): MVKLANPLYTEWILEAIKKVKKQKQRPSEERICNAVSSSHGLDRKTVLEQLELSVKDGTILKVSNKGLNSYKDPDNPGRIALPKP
| Oligonucleotide | E-score |
| --- | --- |
| GGACATTA | 0.105 |
| TAGAGAAA | -0.112 |
| AAATGGTC | -0.189 |
| GAGCTAAC | -0.0887 |
| GACTTTCC | -0.119 |

Block 2
Target: Centromere-binding protein 1, full length, N-terminal tag (CBF1, Saccharomyces cerevisiae, UniProt P17106, residues 1-351)
Chain of UniProt P17106 (whole entry, looked up): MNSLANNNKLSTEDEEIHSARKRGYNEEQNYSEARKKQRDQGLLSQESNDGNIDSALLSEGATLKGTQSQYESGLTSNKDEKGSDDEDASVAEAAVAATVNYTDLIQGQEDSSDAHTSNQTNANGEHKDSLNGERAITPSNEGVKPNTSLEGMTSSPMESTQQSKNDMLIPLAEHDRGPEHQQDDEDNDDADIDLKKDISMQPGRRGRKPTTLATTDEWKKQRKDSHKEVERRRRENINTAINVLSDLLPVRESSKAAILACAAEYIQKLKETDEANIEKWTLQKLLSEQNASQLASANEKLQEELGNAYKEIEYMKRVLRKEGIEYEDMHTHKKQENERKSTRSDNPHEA
Method: protein-binding microarray
Form: double-stranded DNA, one strand shown
Medium: in vitro
Tested at: 0.8 µM
Setting: whole 60-bp probe, no competitor
Direction: higher = stronger binding
| Oligonucleotide | fluorescence intensity |
| --- | --- |
| TGTACGAAGCTATTGTGCGTGCATATAGTAGTTAGGGTCTTGATTCGCTTGACGCTGCTG | 527 a.u. |
| GAATATTTTTAAATACGCATGACCATCCGCGAATAGGTCTTGATTCGCTTGACGCTGCTG | 932 a.u. |
| GAACATATCATCCACCAGATTATCACGCTATAATAGGTCTTGATTCGCTTGACGCTGCTG | 609 a.u. |
| CTAACTTCATTTCATCACGCTCATATTGTTTGTTTCGTCTTGATTCGCTTGACGCTGCTG | 649 a.u. |

Block 3
Target: Prothrombin, mature alpha-thrombin (F2, Homo sapiens, UniProt P00734)
Method: aptamer microarray, sandwich
Form: DNA with 2'F-ANA
Medium: in vitro
Tested at: 200 nM
Setting: whole 15-mer aptamer, many near background
With: Cy3 exosite-II aptamer, 400 nM
Direction: higher = stronger binding
Oligonucleotide: GGTTGGTGTGGTTGG
| Modification | mean fluorescence intensity [a.u.] |
| --- | --- |
| 2'F-ANA at 2 3 8 10 12 | 523 |
| 2'F-ANA at 1 4 7 8 11 12 13 15 | 198 |
| 2'F-ANA at 1 3 4 7 12 13 15 | 340 |
| 2'F-ANA at 5 7 8 9 10 11 12 13 14 15 | 44.7 |
| 2'F-ANA at 1 5 6 7 8 10 11 13 14 | 72.6 |

Further values, each from its own experiment
| Substance | target | test | test system | conditions | how to read | endpoint | value |
| --- | --- | --- | --- | --- | --- | --- | --- |
| PhoQ, residues 284 288 289 292 302 303 GASLAW | PhoP, residues 12 14 15 18 19 SEGLL (Escherichia coli, UniProt P23836) | Sort-seq, item: YFP reporter | E. coli | PhoQ-PhoP variant library, with: 10 µM Mg2+ | relative to: high Mg2+ state, higher = stronger signaling | fold induction | 4.23 |

For quick reference, copied from above (further values, each from its own experiment):
| Substance | target | test | test system | conditions | how to read | endpoint | value |
| --- | --- | --- | --- | --- | --- | --- | --- |
| PhoQ, residues 284 288 289 292 302 303 GASLAW | PhoP, residues 12 14 15 18 19 SEGLL (Escherichia coli, UniProt P23836) | Sort-seq, item: YFP reporter | E. coli | PhoQ-PhoP variant library, with: 10 µM Mg2+ | relative to: high Mg2+ state, higher = stronger signaling | fold induction | 4.23 |
